Values quoted from earlier work, collected from citations in different studies.
Protocols differ between the studies behind these lines. “And” joins repeats or separate records; there may be more than shown. ± gives the spread as reported. Converted amounts (≈) assume the structure as drawn.

O=C(O)C(F)(F)C(F)(F)C(F)(F)C(F)(F)C(F)(F)C(F)(F)C(F)(F)C(F)(F)C(F)(F)C(F)(F)F  IC50 (CYP2C9; inhibitor): 5.36 ± 0.62 µM
COCCOC(=O)C1=C(C)NC(C)=C(C(=O)OC(C)C)C1c1cccc([N+](=O)[O-])c1 (centres unmarked)  fraction unbound (mouse): 0.007
COC(=O)[C@H](c1ccccc1)[C@H]1CCCCN1  AUC(0-inf) (human, CES1 wild type, plasma; oral, 10 mg methylphenidate, single dose after breakfast, median): 21.4 ng·h/mL
O=C(CS)Nc1ccc(Cl)c(Cl)c1  IC50 (HEK293): > 100 µM
COC(=O)C1=C(C)NC(C)=C(C(=O)OCCN(C)Cc2ccccc2)C1c1cccc([N+](=O)[O-])c1 (centres unmarked)  fraction unbound (human): 0.006
CC(C(=O)O)c1ccc(-c2ccccc2)c(F)c1 (centres unmarked)  volume of distribution (human; dose not given): 0.1 L/kg
CCN(CC)C(=O)/C(C#N)=C/c1cc(O)c(O)c([N+](=O)[O-])c1  fraction unbound (mouse): 0.026
c1ccc2c(c1)Cc1ccccc1-2  amount in tissue (zebrafish embryos, whole embryo; 415.6 ng/well, 48 hpf, single exposure): 3.94 ng/well and 3.83 ng/well and 4.85 ng/well
FC(F)(F)C(F)(F)C(F)(F)C(F)(F)C(F)(F)C(F)(F)CCI  IC50 (CYP1A2; inhibitor; Tox21 screening): inactive
CC(=O)C[C@@H](c1ccccc1)c1c(O)c2ccccc2oc1=O  Cmax, mean (human, fasted; oral, 12.5 mg, single dose, with: racemic warfarin 25 mg): 1740 ng/mL
Cc1ncc([N+](=O)[O-])n1CCO  LC50 (Trichomonas gallinae; trypan blue): 0.31 µg/mL (≈ 1.81 µM)
Cn1nc(C(F)(F)F)cc1C(=O)Nc1ccc(S(=O)(=O)N2CCCCC2)cc1  selectivity index (measles virus; Vero; relative to: CC50 over EC50): 14200
O=C(O)[C@@H](c1ccccc1)[C@@H]1CCCCN1  Tmax (human, CES1 wild type, plasma; oral, 10 mg methylphenidate, single dose, median): 2.3 h
C[Si](C)(C)O[Si](C)(C)O[Si](C)(C)C  bioconcentration factor (Pimephales promelas; concentration not given, radiolabelled compound): 3610 L/kg wet weight and 5600 L/kg wet weight
CNCCC=C1c2ccccc2CCc2ccccc21  fraction unbound (human): 0.006
O=S(=O)(O)C(F)(F)C(F)(F)C(F)(F)C(F)(F)F  IC50 (CYP2D6; inhibitor; Tox21 screening): 62.2 ± 21.1 µM
C[Si]1(C)O[Si](C)(C)O[Si](C)(C)O[Si](C)(C)O[Si](C)(C)O1  bioconcentration factor (Cyprinus carpio; concentration not given, reanalysed data): 625 L/kg wet weight
Cc1nnc2n1-c1ccc(Cl)cc1C(c1ccccc1Cl)=NC2  Km (CYP3A5; substrate, refers to: 1-hydroxy metabolite formation): 20.4 µM
COCCN(CCOC)N=O  Ames mutagenicity (Salmonella typhimurium; plate incorporation, preincubation; TA1535; up to 2000 µg/plate, with: uninduced rat liver S9): negative
Nc1nnc(-c2cccc(Cl)c2Cl)c(N)n1  fraction unbound (mouse): 0.18
CCCCCc1cc(O)c2c(c1)OC(C)(C)c1ccc(C)cc1-2  inhibition (CYP2C9, human; enzyme activity, inhibitor; human liver microsomes; 10 µM): inhibited
CCCCCCCOC(=O)NC1=NC(=O)N([C@H]2C[C@H](O)[C@@H](CO)O2)CN1  tolerability (HIV-1; human; dose not given, clinical trials): not toxic
O=C(O)C(F)(F)C(F)(F)C(F)(F)C(F)(F)C(F)(F)C(F)(F)C(F)(F)C(F)(F)C(F)(F)F  IC50 (CYP2D6; inhibitor; Tox21 screening): inactive
O=NN1CCCC1  T>A mutation frequency (induced pluripotent stem cells; mutational fingerprint; concentration not given): increased
Cc1nc2n(c(=O)c1CCN1CCC(c3noc4cc(F)ccc34)CC1)CCCC2O (centres unmarked)  fraction unbound (dog): 0.126
CCCCCOc1ccc(-c2ccc(-c3ccc(C(=O)N[C@H]4C[C@@H](O)[C@@H](O)NC(=O)[C@@H]5[C@@H](O)[C@@H](C)CN5C(=O)[C@H]([C@@H](C)O)NC(=O)[C@H]([C@H](O)[C@@H](O)c5ccc(O)cc5)NC(=O)[C@@H]5C[C@@H](O)CN5C(=O)[C@H]([C@@H](C)O)NC4=O)cc3)cc2)cc1  volume of distribution (human renal impairment mild; 50 mg single dose): 37.6 ± 8.9 L
Cc1c(C(=O)NN2CCCCC2)nn(-c2ccc(Cl)cc2Cl)c1-c1ccc(Cl)cc1  fraction unbound (dog): 0.0005
O=C(O)C(F)(F)C(F)(F)C(F)(F)C(F)(F)C(F)(F)F  IC50 (CYP2D6; inhibitor; Tox21 screening): inactive
CC(=O)O[C@H]1C(=O)[C@@]2(C)[C@H]([C@H](OC(=O)c3ccccc3)[C@]3(O)C[C@H](OC(=O)[C@H](O)[C@@H](NC(=O)c4ccccc4)c4ccccc4)C(C)=C1C3(C)C)[C@]1(OC(C)=O)CO[C@@H]1C[C@@H]2O  IC50 (LCC6MDR (Pgp+ drug-resistant); cytotoxicity): 0.619 µM
COc1ccc2c(c1)[C@]13CCCC[C@@H]1[C@H](C2)N(C)CC3  Km (CYP2D6; substrate): 0.44 to 8.5 µM
O=C(O)C(F)(F)C(F)(F)C(F)(F)C(F)(F)C(F)(F)C(F)(F)C(F)(F)F  IC50 (CYP1A2; inhibitor; Tox21 screening): inactive
O=C1NC(=O)C(c2ccccc2)(c2ccccc2)N1  fraction unbound (mouse): 0.088
Cc1ncc2n1-c1ccc(Cl)cc1C(c1ccccc1F)=NC2  Vd (human): 100 to 150 L
O=S(=O)(O)C(F)(F)C(F)(F)C(F)(F)C(F)(F)C(F)(F)C(F)(F)F  IC50 (CYP2C9; inhibitor): 1.08 ± 0.36 µM
CC(C)(C)[C@H](NC(=O)C(F)(F)F)C(=O)N1C[C@H]2[C@@H]([C@H]1C(=O)N[C@H](C#N)C[C@@H]1CCNC1=O)C2(C)C  cytotoxicity (MRC5; concentration not given): not toxic
